Experimental data pooled from the literature.
Parts stem from different laboratories: compare values within a part only. Substitutions count along the parent as printed.

Study 1
Target: JUN, bZIP domain (human)
Technique: DHFR protein complementation
Medium: yeast
Setting: single substitutions, most at no-binding floor
Baseline: wild-type JUN-FOS pair
Reading: higher = stronger binding
Starting sequence: JUN, bZIP domain (human); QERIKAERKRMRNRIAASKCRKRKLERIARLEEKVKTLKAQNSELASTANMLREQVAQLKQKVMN; partner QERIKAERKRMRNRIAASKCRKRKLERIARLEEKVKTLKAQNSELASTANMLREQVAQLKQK
`V56W` has a binding fitness of -0.813 natural log.
The binding fitness of `R53Y` is reported as -0.864 natural log.
The binding fitness of `A29S` is reported as -0.38 natural log.
With `E32Y` the binding fitness was -0.988 natural log.
`A40D` has a binding fitness of -0.281 natural log.
With `A40K` the binding fitness was -0.0824 natural log.
The binding fitness of `A49K` is reported as -0.972 natural log.
With `R53M` the binding fitness was -0.662 natural log.

Study 2
Cell line: sample F normal colon organoid
Technique: CellTiter-Glo
Concentration: 1 µM
Time: 4 days
Baseline: DMSO
`NS(=O)(=O)c1cc(NC(=O)Cc2ccccc2)ccc1Oc1cccc(Cl)c1` has a viability of 102%.
`C[C@H](c1ccc(F)cc1)N(Cc1ccc(Cl)c(C(=O)O)c1)C(=O)c1cnc2ccccc2c1` gave a viability of 95.3%.
With `Cc1c(NC(=O)c2cc(C(N)=O)nc3cc(F)ccc23)c(C(F)(F)F)nn1Cc1ccc(C#N)cc1` the viability was 36.2%.
With `C[C@H](NC(=O)c1cnc2n1[C@](C)(Cc1ccc(C#N)cc1)C(=O)N2c1cc(Cl)c(F)c(Cl)c1)C(=O)NC1(c2ccccn2)CC1` the viability was 109%.
With `CN(c1ccnc(CNc2nc(Nc3ccc4c(c3)CC(=O)N4)ncc2C(F)(F)F)n1)S(C)(=O)=O` the viability was 108%.

Study 3
Target: Interferon regulatory factor 5, full length, phosphomimetic (IRF5, Homo sapiens, UniProt Q13568-2, residues 1-514, S451D/S453D/S456D/S462D)
Technique: protein-binding microarray
Molecule type: double-stranded DNA, one strand shown
Medium: in vitro
Concentration: 940 nM top
Setting: 60-bp whole probe
Added: salmon DNA 0.4 mg/ml
Baseline: random background probes
Reading: higher = stronger binding
All sequences stand within: GCCTAGCAC … GTCTTGATTCGCTTGACGCTGCTG
`GACGGACTGGACACTGGTGACGTGCTA`: “fitted relative affinity” -0.577 z-score.
For `TTAGATCTCAGACTGGATCAGTGCTAG`, “fitted relative affinity” read -0.545 z-score.
For `AACGGTCTCCTTTTCCTGACGTGCTAG`, “fitted relative affinity” read 0.585 z-score.
`GACTGTTTGGTCCTGATCCTGTGCTAG`: “fitted relative affinity” -0.0518 z-score.
Under “fitted relative affinity”, `GACGAACTGGGGTATTGAGACGTGCTA` is recorded as 0.165 z-score.
`TTAGGTATCGGTCTCGGCTAGTGCTAG` — result for “fitted relative affinity”: 9.44 z-score.
`GAAGGTTTCCTTTCCCTGACGTGCTAG` — result for “fitted relative affinity”: 2.01 z-score.
For `TCATTTATGGTTTTTTTACTGTGCTAG`, “fitted relative affinity” read 0.719 z-score.

Study 4
Target: STE20/SPS1-related proline-alanine-rich protein kinase (STK39, Homo sapiens, UniProt Q9UEW8)
Effect on: enzyme activity
Action: inhibitor
Concentration: 0.5 µM
Baseline: control
`Nc1[nH]nc2nc3ccccc3nc12` gave a remaining activity of 116%.
For `CC(C)[C@H](CO)Nc1nc(Nc2cc(N)cc(Cl)c2)c2ncn(C(C)C)c2n1`, the remaining activity was 83.7%.
`O=C1NC(=O)C(c2cn(CCCO)c3ncccc23)=C1c1cnccn1` gave a remaining activity of 111%.
`O=C1NC(=O)C(c2cn(CCCn3ccnc3)c3ccccc23)=C1Nc1ccccc1` gave a remaining activity of 99.2%.
For `CNC(=O)c1cc(Oc2ccc(NC(=O)Nc3ccc(Cl)c(C(F)(F)F)c3)cc2)ccn1`, the remaining activity was 95.7%.
For `CCOC(=O)c1c(C)[nH]c(/C=C2\C(=O)Nc3ccccc32)c1C`, the remaining activity was 85.1%.
For `OCC(O)CCON=C1C(c2c(O)[nH]c3ccccc23)=Nc2ccccc21` (centres unmarked), the remaining activity was 79.3%.
The remaining activity of `Cc1cccc(-c2[nH]c(C(C)(C)C)nc2-c2ccc3c(c2)OCO3)n1` is reported as 107%.
`Nc1ccc2ncnc(NCCc3ccc(Oc4ccccc4)cc3)c2c1` gave a remaining activity of 83.9%.
`Cc1ccc(Nc2nccc(N(C)c3ccc4c(C)n(C)nc4c3)n2)cc1S(N)(=O)=O` gave a remaining activity of 95.9%.
For `O=S(=O)(c1cccc2cnccc12)N1CCCNCC1`, the remaining activity was 103%.
The remaining activity of `COc1ccc(C(=O)Nc2sc3c(c2C(N)=O)CCCC3)cc1OC` is reported as 101%.
`Cn1c2ccccc2c2c3c(c4c5ccccc5n(CCC#N)c4c21)CNC3=O` gave a remaining activity of 96.7%.
The remaining activity of `COc1cc2ncnc(Nc3ccc(F)c(Cl)c3)c2cc1OCCCN1CCOCC1` is reported as 93.5%.

A few entries again (study 4):
For `CCOC(=O)c1c(C)[nH]c(/C=C2\C(=O)Nc3ccccc32)c1C`, the remaining activity was 85.1%.
The remaining activity of `Cc1cccc(-c2[nH]c(C(C)(C)C)nc2-c2ccc3c(c2)OCO3)n1` is reported as 107%.
